Published values gathered from unrelated publications.
Lines come from different studies, so protocols differ. Numbers after ± are the reported error.
Gnao1: Gnao1, AlexaFluor 532 label (Rattus norvegicus, UniProt P59215)
B1: MYH7 short S1 short S1 1-808 (Homo sapiens, UniProt P12883); Cy5 label on cysteines; sequence looked up; chain MGDSEMAVFGAAAPYLRKSEKERLEAQTRPFDLKKDVFVPDDKQEFVKAKIVSREGGKVTAETEYGKTVTVKEDQVMQQNPPKFDKIEDMAMLTFLHEPAVLYNLKDRYGSWMIYTYSGLFCVTVNPYKWLPVYTPEVVAAYRGKKRSEAPPHIFSISDNAYQYMLTDRENQSILITGESGAGKTVNTKRVIQYFAVIAAIGDRSKKDQSPGKGTLEDQIIQANPALEAFGNAKTVRNDNSSRFGKFIRIHFGATGKLASADIETYLLEKSRVIFQLKAERDYHIFYQILSNKKPELLDMLLITNNPYDYAFISQGETTVASIDDAEELMATDNAFDVLGFTSEEKNSMYKLTGAIMHFGNMKFKLKQREEQAEPDGTEEADKSAYLMGLNSADLLKGLCHPRVKVGNEYVTKGQNVQQVIYATGALAKAVYERMFNWMVTRINATLETKQPRQYFIGVLDIAGFEIFDFNSFEQLCINFTNEKLQQFFNHHMFVLEQEEYKKEGIEWTFIDFGMDLQACIDLIEKPMGIMSILEEECMFPKATDMTFKAKLFDNHLGKSANFQKPRNIKGKPEAHFSLIHYAGIVDYNIIGWLQKNKDPLNETVVGLYQKSSLKLLSTLFANYAGADAPIEKGKGKAKKGSSFQTVSALHRENLNKLMTNLRSTHPHFVRCIIPNETKSPGVMDNPLVMHQLRCNGVLEGIRICRKGFPNRILYGDFRQRYRILNPAAIPEGQFIDSRKGAEKLLSSLDIDHNQYKFGHTKVFFKAGLLGLLEEMRDERLSRIITRIQAQSRGVLARMEYKKLLERR
B2: RGS6 RGS homology domain 336-441 (Homo sapiens, UniProt P49758); sequence looked up; chain SFDEILKDQVGRDQFLRFLESEFSSENLRFWLAVQDLKKQPLQDVAKRVEEIWQEFLAPGAPSAINLDSHSYEITSQNVKDGGRYTFEDAQEHIYKLMKSDSYARF
B3: TFAM 50-118 (Homo sapiens, UniProt Q00059-1); sequence looked up; chain PKKPVSSYLRFSKEQLPIFKAQNPDAKTTELIRRIAQRWRELPDSKKKIYQDAYRAEWQVYKEEISRFK
B4: LRP6 repeats 1-2 (Homo sapiens); chain APLLLYANRRDLRLVDATNGKENATIVVGGLEDAAAVDFVFSHGLIYWSDVSEEAIKRTEFNKTESVQNVVVSGLLSPDGLACDWLGEKLYWTDSETNRIEVSNLDGSLRKVLFWQELDQPRAIALDPSSGFMYWTDWGEVPKIERAGMDGSSRFIIINSEIYWPNGLTLDYEEQKLYWADAKLNFIHKSNLDGTNRQAVVKGSLPHPFALTLFEDILYWTDWSTHSILACNKYTGEGLREIHSDIFSPMDIHAFSQQRQPNATNPCGIDNGGCSHLCLMSPVKPFYQCACPTGVKLLENGKTCKDGATELLLLARRTDLRRISLDTPDFTDIVLQLEDIRHAIAIDYDPVEGYIYWTDDEVRAIRRSFIDGSGSQFVVTAQIAHPDGIAVDWVARNLYWTDTGTDRIEVTRLNGTMRKILISEDLEEPRAIVLDPMVGYMYWTDWGEIPKIERAALDGSDRVVLVNTSLGWPNGLALDYDEGKIYWGDAKTDKIEVMNTDGTGRRVLVEDKIPHIFGFTLLGDYVYWTDWQRRSIERVHKRSAEREVIIDQLPDLMGLKATNVHRVIGSNPCAEENGGCSHLCLYRPQGLRCACPIGFELISDMKTCIVP
B5: TIMP1 mature (Homo sapiens, UniProt P01033); sequence looked up; chain CTCVPPHPQTAFCNSDLVIRAKFVGTPEVNQTTLYQRYEIKMTKMYKGFQALGDAADIRFVYTPAMESVCGYFHRSHNRSEEFLIAGKLQDGLLHITTCSFVAPWNSLSLAQRRGFTKTYTVGCEECTVFPCLSIPCKLQSGTHCLWTDQLLQGSEKGFQSRHLACLPREPGLCTWQSLRSQIA
B6: CD40LG soluble, residues 116-261 (Homo sapiens); glycosylated; chain NMGDQNPQIAAHVISEASSKTTSVLQWAEKGYYTMSNNLVTLENGKQLTVKRQGLYYIYAQVTFCSNREASSQAPFIASLCLKSPGRFERILLRAANTHSSAKPCGQQSIHLGGVFELQPGASVFVNVTDPSQVSHGTGFTSFGLLKL
B7: FDX1 61-184 (Homo sapiens, UniProt P10109); sequence looked up; chain SSSEDKITVHFINRDGETLTTKGKVGDSLLDVVVENNLDIDGFGACEGTLACSTCHLIFEDHIYEKLDAITDEENDMLDLAYGLTDRSRLGCQICLTKSMDNMTVRVPETVADARQSIDVGKTS
B8: UGT1A9 (Homo sapiens, UniProt O60656); chain GKLLVVPMDGSHWFTMRSVVEKLILRGHEVVVVMPEVSWQLGRSLNCTVKTYSTSYTLEDLDREFKAFAHAQWKAQVRSIYSLLMGSYNDIFDLFFSNCRSLFKDKKLVEYLKESSFDAVFLDPFDNCGLIVAKYFSLPSVVFARGILCHYLEEGAQCPAPLSYVPRILLGFSDAMTFKERVRNHIMHLEEHLLCHRFFKNALEIASEILQTPVTEYDLYSHTSIWLLRTDFVLDYPKPVMPNMIFIGGINCHQGKPLPMEFEAYINASGEHGIVVFSLGSMVSEIPEKKAMAIADALGKIPQTVLWRYTGTRPSNLANNTILVKWLPQNDLLGHPMTRAFITHAGSHGVYESICNGVPMVMMPLFGDQMDNAKRMETKGAGVTLNVLEMTSEDLENALKAVINDKSYKENIMRLSSLHKDRPVEPLDLAVFWVEFVMRHKGAPHLRPAAHDLTWYQYHSLDVIGFLLAVVLTVAFITFKCCAYGYRKCLGKKGRVKKAHKSKTH
B9: ftsZ (Bacillus subtilis, UniProt P17865); sequence looked up; chain MLEFETNIDGLASIKVIGVGGGGNNAVNRMIENEVQGVEYIAVNTDAQALNLSKAEVKMQIGAKLTRGLGAGANPEVGKKAAEESKEQIEEALKGADMVFVTAGMGGGTGTGAAPVIAQIAKDLGALTVGVVTRPFTFEGRKRQLQAAGGISAMKEAVDTLIVIPNDRILEIVDKNTPMLEAFREADNVLRQGVQGISDLIATPGLINLDFADVKTIMSNKGSALMGIGIATGENRAAEAAKKAISSPLLEAAIDGAQGVLMNITGGTNLSLYEVQEAADIVASASDQDVNMIFGSVINENLKDEIVVTVIATGFIEQEKDVTKPQRPSLNQSIKTHNQSVPKREPKREEPQQQNTVSRHTSQPADDTLDIPTFLRNRNKRG
B10: MAP2K5 PB1 domain 16-130 (Homo sapiens, UniProt Q13163); iodoacetamidofluorescein label; chain VLVIRIKIPNSGAVDWTVHSGPQLLFRDVLDVIGQVLPEATTTAFEYEDEDGDRITVRSDEEMKAMLSYYYSTVMEQQVNGQLIEPLQIFPRACKPPGERNIHGLKVNTRAGPSQ
B11: RGS7 RH domain 333-448 (UniProt P49802); sequence looked up; chain GMDEALKDPVGREQFLKFLESEFSSENLRFWLAVEDLKKRPIKEVPSRVQEIWQEFLAPGAPSAINLDSKSYDKTTQNVKEPGRYTFEDAQEHIYKLMKSDSYPRFIRSSAYQELL

Molecule = B1 (MYH7 short S1 short S1 1-808); tested on = MYBPC3, PKA phosphorylated (Homo sapiens, UniProt Q14896); assay = MST; conditions = pH 7.5, 23 °C, apparent, together with: ADP 500 µM; quantity = Kd; result = 37 ± 2 µM
Molecule = PGYPNGLLSGDEDFSSIADMDFSALLSQISS (RELA 521-551 L523Y (Homo sapiens, UniProt Q04206); sequence looked up); tested on = GTF2H1 1-108 (Homo sapiens, UniProt P32780); assay = ITC; test system = peptide; conditions = pH 7.4, 25 °C; quantity = Kd; result = 23 ± 4 µM
Molecule = B2; tested on = Gnao1; assay = flow cytometry; conditions = pH 8.0, together with: GDP-AlF4-; quantity = Kd; result = 0.34 µM
Molecule = B3 (TFAM 50-118); tested on = TP53 1-93, AlexaFluor 546 label (UniProt P04637); assay = fluorescence polarisation; conditions = pH 7.4, 37 °C, NaCl 150 mM; quantity = Kd; result = 14 µM
Molecule = Ac-SAAASSSWHTLFTAEEGQLYG-NH2 (AR 426-446 (Homo sapiens); N-acetyl; C-amide); tested on = GTF2F1 450-517 (Homo sapiens, UniProt P35269); assay = NMR titration; test system = peptide; conditions = pH 7.4, 298 K; quantity = Kd; result = 1750 ± 60 µM
Molecule = B4 (LRP6 repeats 1-2); tested on = DKK1 31-142 (Homo sapiens, UniProt O94907); assay = ITC; conditions = pH 8.0, 25 °C, NaCl 200 mM, apparent; quantity = Kd; result = 0.066 µM
Molecule = CIKVAVS; test system = peptide, human polyclonal IgM RF AGER; conditions = concentration not given, 5 µg/mL mAb II-481 coated, together with: RF at 50% max binding concentration; quantity = inhibition; result = 0%
Molecule = B5 (TIMP1 mature); tested on = MMP9 proenzyme, full length E402A (Homo sapiens, UniProt P14780); assay = SPR; conditions = pH 7.4; quantity = Kd; result = 0.01 µM
Molecule = B6; tested on = CD40 extracellular domain , Fc fusion (Homo sapiens); assay = SPR; quantity = Kd; result = 0.0076 µM
Molecule = YGIGVGW; test system = peptide, human polyclonal IgM RF STR; conditions = concentration not given, 5 µg/mL mAb II-481 coated, together with: RF at 50% max binding concentration; quantity = inhibition; result = 0%
Molecule = B7 (FDX1 61-184); tested on = LIAS 28-372, RED-NHS dye label (Homo sapiens, UniProt O43766); assay = MST; conditions = 30 min, pH 7.4, 22 °C; quantity = Kd; result = 6 ± 2 µM
Molecule = B8 (UGT1A9); tested on = COc1ccc(-c2cc(=O)c3ccc(O)cc3o2)cc1; assay = steady-state kinetics; conditions = pH 7.4, 37 °C; quantity = Vmax; result = 0.000764 µmol/min/mg
Molecule = B9 (ftsZ); tested on = UgtP (Bacillus subtilis, UniProt P54166); assay = BLI; conditions = pH 8.0, 30 °C, NaCl 100 mM, with UDP-glc, together with: UDP-glc; quantity = Kd; result = 0.072 µM
Molecule = SKTCGKAKVTGRWK (TNNT2 275-288 R278C (Homo sapiens, UniProt P45379-6); sequence looked up); tested on = TPM1 (Oryctolagus cuniculus, UniProt P58772); assay = SPR; test system = peptide; conditions = pH 7.0, KCl 0.1 M; quantity = Kd; result = 8.89 µM
Molecule = B10 (MAP2K5 PB1 domain 16-130); tested on = MAPK1 1-360 (Homo sapiens, UniProt P28482); assay = fluorescence polarisation; conditions = pH 8.0, NaCl 100 mM; quantity = Kd; result = > 100 µM
Molecule = OppA (Lactococcus lactis); tested on = bradykinin mature, N-terminal sulforhodamine 101; assay = FP; quantity = Kd; result = 45 µM
Molecule = B11 (RGS7 RH domain 333-448); tested on = Gnao1; assay = flow cytometry; conditions = together with: GDP-AlF4-; quantity = Kd; result = 0.063 µM
Molecule = EDGGSAWYGAMKALYG (designed peptide F1A); tested on = CIB1 (Homo sapiens, UniProt Q99828); assay = ITC; test system = peptide; conditions = 25 °C, together with: CaCl2 0.1 mM; quantity = Kd; result = 2.65 µM
